Results from different studies.
Parts stem from different laboratories: compare values within a part only.
UniProt Q9UEE5, sequence (whole entry, looked up): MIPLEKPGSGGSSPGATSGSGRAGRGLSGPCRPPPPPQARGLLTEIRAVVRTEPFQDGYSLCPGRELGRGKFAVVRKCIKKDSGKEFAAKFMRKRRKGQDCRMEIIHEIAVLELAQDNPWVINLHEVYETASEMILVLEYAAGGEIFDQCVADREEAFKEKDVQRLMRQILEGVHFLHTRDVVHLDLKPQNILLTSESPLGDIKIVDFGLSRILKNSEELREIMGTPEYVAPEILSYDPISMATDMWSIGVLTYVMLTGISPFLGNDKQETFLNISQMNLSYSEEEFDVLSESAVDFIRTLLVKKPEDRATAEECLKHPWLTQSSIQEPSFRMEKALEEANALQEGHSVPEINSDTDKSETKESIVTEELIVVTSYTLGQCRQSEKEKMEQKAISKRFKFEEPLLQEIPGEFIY
UniProt P19525, sequence (whole entry, looked up): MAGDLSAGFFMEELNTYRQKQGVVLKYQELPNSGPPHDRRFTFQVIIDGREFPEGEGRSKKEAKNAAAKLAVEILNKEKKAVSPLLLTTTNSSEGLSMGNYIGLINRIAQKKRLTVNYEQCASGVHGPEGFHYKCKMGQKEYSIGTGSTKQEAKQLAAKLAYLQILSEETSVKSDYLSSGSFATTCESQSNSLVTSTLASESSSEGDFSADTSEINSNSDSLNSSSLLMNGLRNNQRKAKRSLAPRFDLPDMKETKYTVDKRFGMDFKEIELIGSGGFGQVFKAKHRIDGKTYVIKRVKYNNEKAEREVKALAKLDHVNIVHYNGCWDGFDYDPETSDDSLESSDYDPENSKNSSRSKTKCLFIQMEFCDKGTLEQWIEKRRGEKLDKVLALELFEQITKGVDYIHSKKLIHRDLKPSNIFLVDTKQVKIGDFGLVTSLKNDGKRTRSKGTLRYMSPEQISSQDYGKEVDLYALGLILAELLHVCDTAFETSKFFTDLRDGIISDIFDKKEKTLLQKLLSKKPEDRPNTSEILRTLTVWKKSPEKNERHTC
UniProt P51451, sequence (whole entry, looked up): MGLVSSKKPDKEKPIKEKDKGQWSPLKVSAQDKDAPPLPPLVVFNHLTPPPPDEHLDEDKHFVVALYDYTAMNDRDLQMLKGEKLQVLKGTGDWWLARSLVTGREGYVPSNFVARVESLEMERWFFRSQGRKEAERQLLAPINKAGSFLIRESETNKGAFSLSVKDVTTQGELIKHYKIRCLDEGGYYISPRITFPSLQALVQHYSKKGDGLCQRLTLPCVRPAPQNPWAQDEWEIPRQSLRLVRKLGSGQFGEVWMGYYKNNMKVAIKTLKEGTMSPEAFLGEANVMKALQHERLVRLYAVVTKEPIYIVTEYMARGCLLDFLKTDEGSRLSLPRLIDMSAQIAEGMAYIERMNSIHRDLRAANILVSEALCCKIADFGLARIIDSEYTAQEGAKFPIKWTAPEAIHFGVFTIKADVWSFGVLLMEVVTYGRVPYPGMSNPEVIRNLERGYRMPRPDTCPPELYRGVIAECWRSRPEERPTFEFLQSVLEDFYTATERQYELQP
UniProt Q9HC98, sequence (whole entry, looked up): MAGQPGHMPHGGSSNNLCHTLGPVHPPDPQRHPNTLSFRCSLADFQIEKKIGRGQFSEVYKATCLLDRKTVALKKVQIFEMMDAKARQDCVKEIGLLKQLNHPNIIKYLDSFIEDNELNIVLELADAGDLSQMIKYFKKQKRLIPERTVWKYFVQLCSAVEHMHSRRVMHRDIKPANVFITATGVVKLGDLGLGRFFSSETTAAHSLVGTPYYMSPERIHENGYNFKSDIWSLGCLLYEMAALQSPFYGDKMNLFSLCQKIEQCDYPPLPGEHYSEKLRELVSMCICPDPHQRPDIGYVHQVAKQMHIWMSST
UniProt Q96PN8, sequence (whole entry, looked up): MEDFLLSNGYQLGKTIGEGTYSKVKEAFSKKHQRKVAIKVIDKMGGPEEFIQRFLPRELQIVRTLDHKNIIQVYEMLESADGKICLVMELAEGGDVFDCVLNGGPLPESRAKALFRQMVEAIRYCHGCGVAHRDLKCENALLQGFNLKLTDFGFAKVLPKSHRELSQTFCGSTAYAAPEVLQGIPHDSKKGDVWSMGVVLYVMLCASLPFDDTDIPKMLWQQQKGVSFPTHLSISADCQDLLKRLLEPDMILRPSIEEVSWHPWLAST
UniProt Q9Y616, sequence (whole entry, looked up): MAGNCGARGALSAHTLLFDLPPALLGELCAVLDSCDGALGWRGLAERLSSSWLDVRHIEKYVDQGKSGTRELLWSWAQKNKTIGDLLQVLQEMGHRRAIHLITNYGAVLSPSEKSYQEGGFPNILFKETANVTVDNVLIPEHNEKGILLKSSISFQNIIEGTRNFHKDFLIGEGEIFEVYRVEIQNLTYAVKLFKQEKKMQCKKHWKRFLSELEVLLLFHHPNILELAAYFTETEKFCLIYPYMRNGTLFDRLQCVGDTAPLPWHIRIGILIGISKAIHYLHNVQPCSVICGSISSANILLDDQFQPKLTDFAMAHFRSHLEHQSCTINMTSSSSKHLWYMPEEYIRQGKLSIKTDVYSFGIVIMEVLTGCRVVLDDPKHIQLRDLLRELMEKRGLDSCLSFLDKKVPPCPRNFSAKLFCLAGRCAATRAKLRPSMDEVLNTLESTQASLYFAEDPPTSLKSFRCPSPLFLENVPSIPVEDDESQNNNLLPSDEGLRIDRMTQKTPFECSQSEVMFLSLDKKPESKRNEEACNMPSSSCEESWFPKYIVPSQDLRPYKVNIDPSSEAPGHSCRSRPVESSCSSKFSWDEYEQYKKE
UniProt P07949, sequence (whole entry, unmodified, looked up): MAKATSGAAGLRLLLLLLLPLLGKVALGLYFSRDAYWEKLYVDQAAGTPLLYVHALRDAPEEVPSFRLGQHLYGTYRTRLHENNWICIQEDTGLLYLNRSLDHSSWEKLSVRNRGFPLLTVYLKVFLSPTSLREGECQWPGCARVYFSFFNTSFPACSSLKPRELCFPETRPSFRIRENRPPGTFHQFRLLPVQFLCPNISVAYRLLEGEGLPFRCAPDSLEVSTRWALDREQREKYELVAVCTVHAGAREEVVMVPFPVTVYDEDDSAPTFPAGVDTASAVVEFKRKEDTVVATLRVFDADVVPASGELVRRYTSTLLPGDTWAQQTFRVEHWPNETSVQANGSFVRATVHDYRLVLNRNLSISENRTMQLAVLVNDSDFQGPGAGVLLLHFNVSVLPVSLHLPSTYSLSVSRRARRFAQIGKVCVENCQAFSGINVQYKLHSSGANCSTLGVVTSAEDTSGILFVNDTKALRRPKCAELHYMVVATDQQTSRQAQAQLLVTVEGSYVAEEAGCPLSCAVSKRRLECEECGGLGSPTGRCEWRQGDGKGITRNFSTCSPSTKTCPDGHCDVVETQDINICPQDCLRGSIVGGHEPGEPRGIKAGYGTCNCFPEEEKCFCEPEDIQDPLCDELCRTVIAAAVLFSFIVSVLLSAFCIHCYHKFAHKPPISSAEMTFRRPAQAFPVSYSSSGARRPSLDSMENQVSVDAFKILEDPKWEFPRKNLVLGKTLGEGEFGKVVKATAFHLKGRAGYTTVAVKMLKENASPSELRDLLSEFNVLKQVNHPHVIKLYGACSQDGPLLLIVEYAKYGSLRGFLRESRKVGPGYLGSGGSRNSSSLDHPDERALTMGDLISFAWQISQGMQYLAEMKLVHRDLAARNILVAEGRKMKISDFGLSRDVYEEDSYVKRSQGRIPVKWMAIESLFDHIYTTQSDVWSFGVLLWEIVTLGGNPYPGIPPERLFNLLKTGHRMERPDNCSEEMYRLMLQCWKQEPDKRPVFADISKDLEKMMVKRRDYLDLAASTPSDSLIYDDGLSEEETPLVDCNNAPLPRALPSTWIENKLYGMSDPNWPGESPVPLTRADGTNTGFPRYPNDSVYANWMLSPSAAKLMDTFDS
UniProt P00519, sequence (whole entry, looked up): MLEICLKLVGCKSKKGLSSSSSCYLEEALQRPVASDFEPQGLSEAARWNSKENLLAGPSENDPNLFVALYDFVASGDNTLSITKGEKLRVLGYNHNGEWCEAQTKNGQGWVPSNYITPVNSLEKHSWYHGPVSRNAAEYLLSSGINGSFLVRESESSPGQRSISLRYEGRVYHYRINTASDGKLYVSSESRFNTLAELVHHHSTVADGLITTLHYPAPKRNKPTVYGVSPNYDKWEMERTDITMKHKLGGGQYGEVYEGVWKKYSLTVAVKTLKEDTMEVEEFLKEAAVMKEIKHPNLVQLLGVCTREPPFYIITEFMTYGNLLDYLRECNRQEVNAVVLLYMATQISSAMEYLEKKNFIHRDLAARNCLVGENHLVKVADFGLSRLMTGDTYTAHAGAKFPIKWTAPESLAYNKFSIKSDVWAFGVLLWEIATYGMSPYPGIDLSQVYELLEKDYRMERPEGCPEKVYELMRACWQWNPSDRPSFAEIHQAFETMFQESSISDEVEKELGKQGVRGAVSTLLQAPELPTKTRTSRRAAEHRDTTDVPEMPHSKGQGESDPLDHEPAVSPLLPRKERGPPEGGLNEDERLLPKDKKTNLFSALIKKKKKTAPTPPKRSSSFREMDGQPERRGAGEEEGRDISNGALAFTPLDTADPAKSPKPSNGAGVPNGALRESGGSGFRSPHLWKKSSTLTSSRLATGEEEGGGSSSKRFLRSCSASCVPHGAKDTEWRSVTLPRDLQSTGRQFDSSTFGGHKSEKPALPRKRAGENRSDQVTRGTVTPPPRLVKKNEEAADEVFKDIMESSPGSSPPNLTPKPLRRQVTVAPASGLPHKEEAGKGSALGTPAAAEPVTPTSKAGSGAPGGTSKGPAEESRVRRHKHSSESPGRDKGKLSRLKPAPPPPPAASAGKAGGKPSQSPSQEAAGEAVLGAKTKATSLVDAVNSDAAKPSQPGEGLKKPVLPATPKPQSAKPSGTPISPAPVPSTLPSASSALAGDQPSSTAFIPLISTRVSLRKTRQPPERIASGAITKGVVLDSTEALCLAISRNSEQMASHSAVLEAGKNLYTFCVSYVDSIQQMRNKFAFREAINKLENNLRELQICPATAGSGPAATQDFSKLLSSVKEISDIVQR

Set 1 — observed: enzyme activity; action: inhibitor; tested at: 0.5 µM; reference: control
Target: MAP kinase-activated protein kinase 5 (MAPKAPK5, Homo sapiens, UniProt Q8IW41)
Construct (Q8IW41 1-473): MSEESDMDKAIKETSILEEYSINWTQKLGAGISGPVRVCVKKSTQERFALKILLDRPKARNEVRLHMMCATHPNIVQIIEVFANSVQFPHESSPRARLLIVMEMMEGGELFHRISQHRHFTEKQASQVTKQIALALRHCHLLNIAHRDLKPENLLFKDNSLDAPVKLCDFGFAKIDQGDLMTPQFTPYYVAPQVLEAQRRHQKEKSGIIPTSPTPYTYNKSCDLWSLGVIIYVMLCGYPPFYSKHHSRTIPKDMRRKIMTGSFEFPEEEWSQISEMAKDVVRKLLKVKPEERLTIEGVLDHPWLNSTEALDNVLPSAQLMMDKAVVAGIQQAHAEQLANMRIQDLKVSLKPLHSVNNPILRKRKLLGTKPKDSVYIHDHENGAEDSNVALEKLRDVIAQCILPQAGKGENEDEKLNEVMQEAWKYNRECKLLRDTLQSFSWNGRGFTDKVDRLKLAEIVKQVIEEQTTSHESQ
With O=C(c1cc2cc(O)ccc2[nH]1)c1cc2cc(O)ccc2[nH]1 the remaining activity was 89.6%.
For O=C1NC(=O)c2c1c1c3ccccc3[nH]c1n1cncc21, the remaining activity was 123%.
With CN1CCN(c2ccc3nc(-c4c(N)c5c(F)cccc5[nH]c4=O)[nH]c3c2)CC1 the remaining activity was 93.9%.
The remaining activity of O=C1Nc2ccccc2/C1=C\c1c(Cl)[nH]c2ccccc12 is reported as 121%.
For CCCNC(=O)Nc1ccc(Oc2ncnc3cc(OC)c(OC)cc23)cc1Cl, the remaining activity was 92.2%.
With c1ccc(-c2n[nH]c3c2oc2ccccc23)cc1 the remaining activity was 103%.
With O=C1NC(=O)c2c1c1c3ccccc3[nH]c1c1[nH]c3cc(Br)ccc3c21 the remaining activity was 86.2%.
CN(C)S(=O)(=O)c1ccc2c(c1)/C(=C/c1cc3c([nH]1)CCCC3)C(=O)N2 has a remaining activity of 99.8%.
CCCCc1c(-c2ccc(OC)cc2)[nH]c2nccnc12 gave a remaining activity of 95.3%.
O=Nc1c(-c2c(O)[nH]c3cc(Br)ccc23)[nH]c2ccccc12 has a remaining activity of 82.7%.
With O=C1Cc2c([nH]c3ccc(Br)cc23)-c2ccccc2N1 the remaining activity was 94.6%.
O=C1Nc2ccc(Br)cc2/C1=C/c1cc2c([nH]1)CCCC2 has a remaining activity of 90.6%.
The remaining activity of c1ccc2c(-c3ccncc3)c[nH]c2c1 is reported as 96.1%.
The remaining activity of Cc1ccc(S(=O)(=O)/C=C/C#N)cc1 is reported as 88.9%.
Oc1cccc(-c2nc(N3CCOCC3)c3oc4ncccc4c3n2)c1 gave a remaining activity of 85.7%.
For O=c1cc(N2CCOCC2)oc2c(-c3ccccc3)cccc12, the remaining activity was 94.1%.
The remaining activity of N#Cc1cnc2cnc(NCc3cccnc3)cc2c1Nc1ccc(F)c(Cl)c1 is reported as 99.6%.
For Cc1cc(Nc2cc(N3CCN(C)CC3)nc(Sc3ccc(NC(=O)C4CC4)cc3)n2)[nH]n1, the remaining activity was 95.8%.
The remaining activity of COc1ccc2c(c1)c(C1=C(c3c[nH]c4ccccc34)C(=O)NC1=O)cn2CCCN(C)C is reported as 98.1%.
COc1cccc(-c2cc(=O)c3ccccc3o2)c1N gave a remaining activity of 122%.

Set 2 — organism: Sarcocystis neurona; observed: parasite growth; tested at: 10 µM; time: 96 h; notes: first screen; reference: untreated
For Cc1nc2ccc(CN(C)c3ccc(C(=O)N[C@@H](CCC(=O)O)C(=O)O)s3)cc2c(=O)[nH]1, “log2 fold change” read 0.11.
CN1CCN(C2=Nc3cc(Cl)ccc3Nc3ccccc32)CC1: “log2 fold change” 0.15.
For COC(=O)C1=C(C)NC(C)=C(C(=O)OC)C1c1ccccc1[N+](=O)[O-], “log2 fold change” read -0.1.
Under “log2 fold change”, C[C@H]1O[C@@H](O[C@H]2[C@@H](O)C[C@H](O[C@H]3[C@@H](O)C[C@H](O[C@H]4CC[C@@]5(C)[C@H](CC[C@@H]6[C@@H]5C[C@@H](O)[C@]5(C)[C@@H](C7=CC(=O)OC7)CC[C@]65O)C4)O[C@@H]3C)O[C@@H]2C)C[C@H](O)[C@@H]1O is recorded as -1.43.
Cc1onc(-c2c(Cl)cccc2Cl)c1C(=O)N[C@@H]1C(=O)N2[C@@H]1SC(C)(C)[C@@H]2C(=O)O: “log2 fold change” 0.27.
Nc1ccn([C@H]2CC[C@@H](CO)O2)c(=O)n1: “log2 fold change” 0.23.
COc1ccccc1N1CCN(CC(O)COc2cccc3ccccc23)CC1 (stereo not drawn): “log2 fold change” -0.19.
C=C(CC)C(=O)c1ccc(OCC(=O)O)c(Cl)c1Cl — result for “log2 fold change”: 0.22.
For CN(C)CCOC(c1ccccc1)c1ccccc1, “log2 fold change” read -0.17.
CCCSc1ccc2nc(NC(=O)OC)[nH]c2c1: “log2 fold change” 1.24.
For C[N+]1(C)CCC(OC(=O)C(O)(c2ccccc2)C2CCCC2)C1 (stereo not drawn), “log2 fold change” read 0.25.
Under “log2 fold change”, COc1ccccc1OCC(O)COC(N)=O (stereo not drawn) is recorded as 0.13.

Set 3 — tested at: 10 µM
Structure (SMILES): Cc1sc(C(=O)NC2COC2)cc1-n1cc(NC(=O)Nc2c(F)cccc2Cl)cn1
MAP3K9 (Homo sapiens, UniProt P80192); enzyme activity; reference: untreated control — remaining activity: 87.1%.
Cyclin-dependent kinase 3, with cyclin E2 (CDK3, Homo sapiens, UniProt Q00526); enzyme activity; reference: untreated control — remaining activity: 99.4%.
The remaining activity was 90.4% (EPHA8 (Homo sapiens, UniProt P29322); enzyme activity; reference: untreated control).
For SRPK1 (Homo sapiens, UniProt Q96SB4); enzyme activity; reference: untreated control: remaining activity read 96.8%.
It gave 100% for remaining activity (MARK3 (Homo sapiens, UniProt P27448); enzyme activity; reference: untreated control).
It gave 44.3% for remaining activity (LCK (Homo sapiens, UniProt P06239); enzyme activity; reference: untreated control).
For EPHB3 (Homo sapiens, UniProt P54753); enzyme activity; reference: untreated control: remaining activity read 95.8%.
For STK17A (Homo sapiens, UniProt Q9UEE5); enzyme activity; reference: untreated control: remaining activity read 108%.
For TSSK3 (Homo sapiens, UniProt Q96PN8); enzyme activity; reference: untreated control: remaining activity read 99.1%.
PRKCI (Homo sapiens, UniProt P41743); enzyme activity; reference: untreated control — remaining activity: 90.5%.
It gave 107% for remaining activity (Cell division cycle 7-related protein kinase, with DBF4 (CDC7, Homo sapiens, UniProt O00311); kinase activity, kinase panel profiling).

Set 4 — tested at: 1 µM
Compound: NS(=O)(=O)c1cc(NC(=O)Cc2ccccc2)ccc1Oc1cccc(Cl)c1
The remaining binding was 93% (SIK1 (Homo sapiens, UniProt P57059); competition binding).
It gave 98% for remaining binding (NEK6 (Homo sapiens, UniProt Q9HC98); cell-free assay, competition with immobilised ligand).
It gave 69% for remaining binding (Aurora kinase A (AURKA, Homo sapiens, UniProt O14965); cell-free assay, competition with immobilised ligand).
The remaining binding was 83% (RET (Homo sapiens, UniProt P07949, M918T); cell-free assay, competition with immobilised ligand).
Macrophage colony-stimulating factor 1 receptor, autoinhibited (CSF1R, Homo sapiens, UniProt P07333); cell-free assay, competition with immobilised ligand — remaining binding: 51%.
EIF2AK2 (Homo sapiens, UniProt P19525); cell-free assay, competition with immobilised ligand — remaining binding: 80%.
The remaining binding was 75% (ACVR2B (Homo sapiens, UniProt Q13705); binding, competition with immobilised ligand).
FLT3 (Homo sapiens, UniProt P36888, D835Y); cell-free assay, competition with immobilised ligand — remaining binding: 95%.
It gave 75% for remaining binding (Tyrosine-protein kinase ABL1, phosphorylated (ABL1, Homo sapiens, UniProt P00519); cell-free assay, competition with immobilised ligand).
For GAK (Homo sapiens, UniProt O14976); cell-free assay, competition with immobilised ligand: remaining binding read 99%.
For ACVR2A (Homo sapiens, UniProt P27037); cell-free assay, competition with immobilised ligand: remaining binding read 95%.
For FLT3 (Homo sapiens, UniProt P36888, ITD); cell-free assay, competition with immobilised ligand: remaining binding read 79%.
It gave 99% for remaining binding (LYN (Homo sapiens, UniProt P07948); cell-free assay, competition with immobilised ligand).
For PRKG2 (Homo sapiens, UniProt Q13237); cell-free assay, competition with immobilised ligand: remaining binding read 86%.
The remaining binding was 73% (RIOK3 (Homo sapiens, UniProt O14730); cell-free assay, competition with immobilised ligand).
It gave 100% for remaining binding (Myosin-IIIa (MYO3A, Homo sapiens, UniProt Q8NEV4); binding, competition with immobilised ligand).
For Aurora kinase B (AURKB, Homo sapiens, UniProt Q96GD4); cell-free assay, competition with immobilised ligand: remaining binding read 58%.
IRAK3 (Homo sapiens, UniProt Q9Y616); cell-free assay, competition with immobilised ligand — remaining binding: 87%.
BLK (Homo sapiens, UniProt P51451); cell-free assay, competition with immobilised ligand — remaining binding: 68%.
CLK2 (Homo sapiens, UniProt P49760); cell-free assay, competition with immobilised ligand — remaining binding: 91%.
It gave 100% for remaining binding (EPHA1 (Homo sapiens, UniProt P21709); cell-free assay, competition with immobilised ligand).
The remaining binding was 98% (ROCK2 (Homo sapiens, UniProt O75116); cell-free assay, competition with immobilised ligand).
Myosin-IIIb (MYO3B, Homo sapiens, UniProt Q8WXR4); binding, competition with immobilised ligand — remaining binding: 100%.
